# Experimental data pooled from the literature.
# Each numbered part is a random draw from the data of one study; scales do not carry over between parts.
# Sequence of UniProt Q15349 (whole entry, looked up): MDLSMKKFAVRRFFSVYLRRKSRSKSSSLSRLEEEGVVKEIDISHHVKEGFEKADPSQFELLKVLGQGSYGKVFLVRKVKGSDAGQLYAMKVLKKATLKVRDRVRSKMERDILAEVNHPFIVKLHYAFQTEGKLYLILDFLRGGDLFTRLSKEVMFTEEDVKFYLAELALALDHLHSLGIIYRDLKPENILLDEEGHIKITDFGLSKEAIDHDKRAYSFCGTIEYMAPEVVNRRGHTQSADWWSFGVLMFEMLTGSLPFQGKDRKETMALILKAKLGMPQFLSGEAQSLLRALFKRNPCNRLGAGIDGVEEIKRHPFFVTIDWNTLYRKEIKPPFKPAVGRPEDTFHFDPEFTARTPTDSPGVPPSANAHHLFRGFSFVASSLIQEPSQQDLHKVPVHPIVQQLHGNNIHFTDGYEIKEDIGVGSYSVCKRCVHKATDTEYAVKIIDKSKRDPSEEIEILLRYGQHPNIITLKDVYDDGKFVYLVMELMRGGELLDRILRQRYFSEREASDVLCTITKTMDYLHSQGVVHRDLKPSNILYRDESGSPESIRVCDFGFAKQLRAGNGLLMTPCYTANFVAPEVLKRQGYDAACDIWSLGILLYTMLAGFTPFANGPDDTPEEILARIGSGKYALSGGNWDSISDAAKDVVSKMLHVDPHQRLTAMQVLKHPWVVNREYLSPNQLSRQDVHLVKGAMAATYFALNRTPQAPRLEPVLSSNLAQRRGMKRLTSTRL
# Sequence of UniProt P9WI81 (whole entry, looked up): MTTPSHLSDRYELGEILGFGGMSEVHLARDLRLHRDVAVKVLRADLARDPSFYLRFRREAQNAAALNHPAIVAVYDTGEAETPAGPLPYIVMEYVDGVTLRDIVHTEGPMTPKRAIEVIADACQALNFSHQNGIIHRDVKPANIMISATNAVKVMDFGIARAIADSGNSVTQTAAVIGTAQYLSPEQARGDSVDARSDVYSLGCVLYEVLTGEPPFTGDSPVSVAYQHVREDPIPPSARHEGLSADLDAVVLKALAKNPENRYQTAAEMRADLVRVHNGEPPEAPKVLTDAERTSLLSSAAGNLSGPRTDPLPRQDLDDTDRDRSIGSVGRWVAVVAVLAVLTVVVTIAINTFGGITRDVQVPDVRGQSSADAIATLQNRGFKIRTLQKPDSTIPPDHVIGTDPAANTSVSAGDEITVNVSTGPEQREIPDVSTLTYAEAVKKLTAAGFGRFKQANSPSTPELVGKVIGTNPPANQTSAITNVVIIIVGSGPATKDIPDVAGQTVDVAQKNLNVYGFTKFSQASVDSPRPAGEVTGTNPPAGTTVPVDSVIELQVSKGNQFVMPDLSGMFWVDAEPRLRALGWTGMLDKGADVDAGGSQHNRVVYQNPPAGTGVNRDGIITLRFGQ
# Sequence of UniProt Q9UL54 (whole entry, looked up): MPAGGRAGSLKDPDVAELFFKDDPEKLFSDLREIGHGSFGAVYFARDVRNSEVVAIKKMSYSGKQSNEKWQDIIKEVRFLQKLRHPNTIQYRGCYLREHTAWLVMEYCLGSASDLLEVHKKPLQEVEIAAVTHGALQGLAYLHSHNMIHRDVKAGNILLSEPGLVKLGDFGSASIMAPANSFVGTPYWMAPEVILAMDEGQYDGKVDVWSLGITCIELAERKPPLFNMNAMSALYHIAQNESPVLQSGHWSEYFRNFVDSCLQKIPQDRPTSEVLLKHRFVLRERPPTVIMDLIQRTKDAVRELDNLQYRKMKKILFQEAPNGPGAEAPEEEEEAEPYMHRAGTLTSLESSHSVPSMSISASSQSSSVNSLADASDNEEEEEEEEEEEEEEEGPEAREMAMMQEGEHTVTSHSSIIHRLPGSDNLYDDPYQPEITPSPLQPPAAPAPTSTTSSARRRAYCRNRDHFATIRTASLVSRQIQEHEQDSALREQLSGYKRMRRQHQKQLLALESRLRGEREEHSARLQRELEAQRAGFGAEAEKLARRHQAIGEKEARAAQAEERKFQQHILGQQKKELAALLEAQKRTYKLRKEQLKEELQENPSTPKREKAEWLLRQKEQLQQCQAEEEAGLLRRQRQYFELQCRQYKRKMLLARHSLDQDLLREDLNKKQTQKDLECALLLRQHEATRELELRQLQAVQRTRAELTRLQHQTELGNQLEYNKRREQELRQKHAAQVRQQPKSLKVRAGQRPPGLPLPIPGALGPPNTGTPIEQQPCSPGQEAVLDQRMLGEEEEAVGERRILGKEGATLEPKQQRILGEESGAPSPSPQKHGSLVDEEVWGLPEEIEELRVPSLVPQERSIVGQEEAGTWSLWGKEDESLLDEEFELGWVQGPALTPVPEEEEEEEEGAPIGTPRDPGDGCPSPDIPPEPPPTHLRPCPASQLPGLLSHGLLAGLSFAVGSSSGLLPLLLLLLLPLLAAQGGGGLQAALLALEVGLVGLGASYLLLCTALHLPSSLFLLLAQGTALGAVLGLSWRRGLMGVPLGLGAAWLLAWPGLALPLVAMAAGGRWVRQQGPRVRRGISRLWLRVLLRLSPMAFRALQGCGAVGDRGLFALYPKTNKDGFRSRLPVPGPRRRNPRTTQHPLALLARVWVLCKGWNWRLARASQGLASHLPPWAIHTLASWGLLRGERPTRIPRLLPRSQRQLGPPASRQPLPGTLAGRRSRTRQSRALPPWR
# Sequence of UniProt P51813 (whole entry, looked up): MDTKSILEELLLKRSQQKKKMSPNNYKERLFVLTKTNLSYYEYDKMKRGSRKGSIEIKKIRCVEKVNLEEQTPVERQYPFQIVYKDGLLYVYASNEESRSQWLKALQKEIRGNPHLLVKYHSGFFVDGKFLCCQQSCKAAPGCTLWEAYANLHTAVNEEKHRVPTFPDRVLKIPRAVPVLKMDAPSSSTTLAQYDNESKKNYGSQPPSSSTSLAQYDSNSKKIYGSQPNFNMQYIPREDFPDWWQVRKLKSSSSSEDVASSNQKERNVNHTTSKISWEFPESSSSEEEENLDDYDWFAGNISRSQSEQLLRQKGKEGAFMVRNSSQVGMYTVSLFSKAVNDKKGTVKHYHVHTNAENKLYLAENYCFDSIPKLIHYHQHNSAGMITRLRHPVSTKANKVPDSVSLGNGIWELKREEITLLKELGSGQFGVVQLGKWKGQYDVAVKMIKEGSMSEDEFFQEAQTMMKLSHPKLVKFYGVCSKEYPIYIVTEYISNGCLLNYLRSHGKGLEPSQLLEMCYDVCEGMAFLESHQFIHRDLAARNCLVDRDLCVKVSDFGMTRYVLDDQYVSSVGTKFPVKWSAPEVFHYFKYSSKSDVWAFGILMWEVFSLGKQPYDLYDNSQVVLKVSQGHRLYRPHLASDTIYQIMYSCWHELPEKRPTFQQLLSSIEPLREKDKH
# Sequence of UniProt P62344 (whole entry, looked up): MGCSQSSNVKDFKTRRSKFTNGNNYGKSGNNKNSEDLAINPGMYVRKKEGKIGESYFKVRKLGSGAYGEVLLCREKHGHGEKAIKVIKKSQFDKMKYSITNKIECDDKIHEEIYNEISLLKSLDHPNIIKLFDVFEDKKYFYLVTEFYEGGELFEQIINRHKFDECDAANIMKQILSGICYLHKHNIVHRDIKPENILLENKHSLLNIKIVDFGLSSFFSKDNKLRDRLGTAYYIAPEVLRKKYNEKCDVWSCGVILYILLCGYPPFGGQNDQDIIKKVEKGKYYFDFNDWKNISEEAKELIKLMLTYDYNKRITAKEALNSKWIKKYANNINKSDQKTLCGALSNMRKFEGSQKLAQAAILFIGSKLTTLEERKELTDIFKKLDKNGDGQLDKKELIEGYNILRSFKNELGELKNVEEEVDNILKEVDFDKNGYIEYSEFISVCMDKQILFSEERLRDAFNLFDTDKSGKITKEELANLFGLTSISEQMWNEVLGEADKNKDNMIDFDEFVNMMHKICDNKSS
# Sequence of UniProt P51956 (whole entry, looked up): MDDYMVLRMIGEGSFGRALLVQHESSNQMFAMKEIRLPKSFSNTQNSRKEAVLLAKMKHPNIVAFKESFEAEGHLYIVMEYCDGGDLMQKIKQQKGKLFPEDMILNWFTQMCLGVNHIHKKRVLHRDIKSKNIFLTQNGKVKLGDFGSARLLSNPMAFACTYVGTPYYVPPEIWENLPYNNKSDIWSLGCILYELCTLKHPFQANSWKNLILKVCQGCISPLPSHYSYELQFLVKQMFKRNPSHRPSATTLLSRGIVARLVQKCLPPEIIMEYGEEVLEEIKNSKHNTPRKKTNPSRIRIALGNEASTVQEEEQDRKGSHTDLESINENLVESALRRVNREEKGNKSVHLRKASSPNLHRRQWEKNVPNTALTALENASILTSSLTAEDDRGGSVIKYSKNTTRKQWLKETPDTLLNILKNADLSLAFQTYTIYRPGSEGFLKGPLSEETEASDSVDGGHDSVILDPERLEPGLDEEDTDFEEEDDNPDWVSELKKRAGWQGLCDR
# Sequence of UniProt P36897 (whole entry, looked up): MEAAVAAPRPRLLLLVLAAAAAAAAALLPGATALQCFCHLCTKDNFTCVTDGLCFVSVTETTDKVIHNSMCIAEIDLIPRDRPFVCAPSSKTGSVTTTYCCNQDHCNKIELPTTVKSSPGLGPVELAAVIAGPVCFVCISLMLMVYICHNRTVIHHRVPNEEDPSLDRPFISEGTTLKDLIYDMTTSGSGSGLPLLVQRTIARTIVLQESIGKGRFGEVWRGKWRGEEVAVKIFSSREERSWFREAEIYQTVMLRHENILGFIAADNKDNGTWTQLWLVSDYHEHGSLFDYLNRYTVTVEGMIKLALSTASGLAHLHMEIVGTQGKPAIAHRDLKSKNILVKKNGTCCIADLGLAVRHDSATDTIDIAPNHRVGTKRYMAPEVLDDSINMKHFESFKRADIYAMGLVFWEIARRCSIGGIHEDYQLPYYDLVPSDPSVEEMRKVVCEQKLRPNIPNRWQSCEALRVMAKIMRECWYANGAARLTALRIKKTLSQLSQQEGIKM

# Set 1 — cell line: HEK-293T-ACE2-TMPRSS2; technique: cell count; tested at: 10 µM
Structure (SMILES),viability [%]
CCc1n[nH]c(SCC(=O)NC(C)CN2CCc3ccccc3C2)n1 (stereo not drawn),80
Cc1noc([C@@H]2CN(C(=O)c3ccnn3C)C[C@H]2COCC2CC2)n1,96
Cc1ccc(C)c(N2CCN(C(=O)CCCn3cnc4cc(S(=O)(=O)N(C)C)ccc43)CC2)c1,66
Oc1ccc2ccccc2c1N=Nc1ccccn1,65
O=C1C(=Cc2cccc(O)c2)CSC/C1=C/c1cccc(O)c1,71
Cc1ccsc1C(=O)Nc1cccc(OC(F)(F)F)c1,74
O=C(c1ccc(N2CC(O)C2)nc1)N1CCC(CCc2ccccc2)CC1,65
CCn1nc(C)c(C(=O)Nc2cccc(NC(=O)c3ccccc3OC)c2)c1C,76
CC(C)c1nccn1CCCn1cnc(-c2ccccc2)c1-c1cnn(C)c1,76
OC(CN1CCc2ccccc2C1)c1cc(F)ccc1F (stereo not drawn),76
C=C(Cl)COC(=O)c1ccc2c(c1)S(=O)(=O)N=C1CCCCCN12,95
Cc1onc(-c2ccccc2Cl)c1-c1nc(CC2CCN(C)CC2)no1,66
COc1ccc(NC(=O)Cn2ccc3c(=O)[nH]ccc32)cc1,104
COc1cc(-n2ccnc2)cc(OC)c1OC,65
CN(C)S(=O)(=O)c1cccc(Cn2ncc(Cl)c(Cl)c2=O)c1,78
Cc1cccc(CN2CCN(C(=O)c3cn(C4CCCCC4)nn3)CC2=O)c1,112
COC1=C2C[C@@H](C)C[C@H](OC)[C@H](O)[C@@H](C)/C=C(\C)[C@H](OC(N)=O)[C@@H](OC)/C=C\C=C(/C)C(=O)NC(=CC1=O)C2=O,78
CC(C)CN1CCOC(CNC(=O)Cn2ncc(Br)c(Br)c2=O)C1 (stereo not drawn),73
COc1ccc(NC(=O)C2CCN(C(=O)C3Sc4ccccc4NC3=O)CC2)cc1 (stereo not drawn),66
N#CC(C#N)=C/C=C(/Sc1ncc(C(F)(F)F)cc1Cl)c1ccc(Cl)cc1,71
O=C(NC1CC(=O)N(Cc2ccccc2Cl)C1)c1cc2ccccc2o1 (stereo not drawn),105
CN1CCN(Cc2c(O)ccc3cc(-c4nc5ccccc5[nH]4)c(=O)oc23)CC1,66
CN(C)c1nc2sc(C(=O)N(Cc3ccco3)C3CC3)cc2s1,76
O=c1c2ccccc2nc(SC2c3ccccc3-c3ccccc32)n1CCCO,65
CC(=O)NOCc1cccc(-c2cc(F)ccc2C)c1,65

# Set 2 — cell line: HEK-293T-ACE2; technique: Hoechst nuclei count; tested at: concentration not given; notes: counter-screen; baseline: vehicle
Compound,cell number
Cl.O=C1[C@@H]2[C@H]3CC[C@H](C3)[C@@H]2C(=O)N1C[C@@H]1CCCC[C@H]1CN1CCN(c2nsc3ccccc23)CC1,101%
Nc1nc2[nH]cc(CCc3ccc(C(=O)N[C@@H](CCC(=O)[O-])C(=O)[O-])cc3)c2c(=O)[nH]1.Nc1nc2[nH]cc(CCc3ccc(C(=O)N[C@@H](CCC(=O)[O-])C(=O)[O-])cc3)c2c(=O)[nH]1.O.O.O.O.O.[Na+].[Na+].[Na+].[Na+],87.2%
C[C@@H](O)[C@H]1C(=O)N2C(C(=O)O)=C(S[C@@H]3CN[C@H](CNS(N)(=O)=O)C3)[C@H](C)[C@H]12.O,105%
CNC(=O)c1ccc(N2C(=S)N(c3ccc(C#N)c(C(F)(F)F)c3)C(=O)C2(C)C)cc1F,97.6%
OC[C@H]1O[C@@H](c2ccc(Cl)c(Cc3ccc(O[C@H]4CCOC4)cc3)c2)[C@H](O)[C@@H](O)[C@@H]1O,99.8%
COC(=O)N[C@H](C(=O)N[C@@H](Cc1ccccc1)[C@@H](O)CN(Cc1ccc(-c2ccccn2)cc1)NC(=O)[C@@H](NC(=O)OC)C(C)(C)C)C(C)(C)C.O=S(=O)(O)O,96.4%
COc1c(-c2ccc3cc(NS(C)(=O)=O)ccc3c2)cc(-n2ccc(=O)[nH]c2=O)cc1C(C)(C)C,99.6%
NCC[C@H](O)C(=O)N[C@@H]1C[C@H](N)[C@@H](O[C@H]2O[C@H](CN)[C@@H](O)[C@H](O)[C@H]2O)[C@H](O)[C@H]1O[C@H]1O[C@H](CO)[C@@H](O)[C@H](N)[C@H]1O.O=S(=O)(O)O.O=S(=O)(O)O,100%
Br.Cc1ccc(Sc2ccccc2N2CCNCC2)c(C)c1,96.4%
COc1cc2c(cc1Cc1cccc(Cl)c1F)c(=O)c(C(=O)O)cn2[C@H](CO)C(C)C,102%
CC(CN(C)C)CN1c2ccccc2Sc2ccccc21.CC(CN(C)C)CN1c2ccccc2Sc2ccccc21.O=C(O)C(O)C(O)C(=O)O (stereo not drawn),96.9%
Cc1nccn1CC1CCc2c(c3ccccc3n2C)C1=O.Cl (stereo not drawn),93.5%
NCCC(O)(P(=O)([O-])O)P(=O)([O-])O.[Na+].[Na+],96.8%
CC(=O)O[C@]1(C(C)=O)CC[C@H]2[C@@H]3C[C@H](C)C4=CC(=O)CC[C@]4(C)[C@H]3CC[C@@]21C,98.6%
CCCS(=O)(=O)Nc1ccc(F)c(C(=O)c2c[nH]c3ncc(-c4ccc(Cl)cc4)cc23)c1F,106%
CC[C@H](Nc1ncnc2[nH]cnc12)c1nc2cccc(F)c2c(=O)n1-c1ccccc1,100%
COc1cc2c(cc1OC)CC(=O)N(CCCN(C)C[C@H]1Cc3cc(OC)c(OC)cc31)CC2.Cl,109%
COc1cc2nccc(Oc3ccc(NC(=O)C4(C(=O)Nc5ccc(F)cc5)CC4)cc3)c2cc1OC.O=C(O)C[C@H](O)C(=O)O,81.7%
Cc1cc(C#N)cc(C)c1Oc1nc(Nc2ccc(C#N)cc2)nc(N)c1Br,70.7%
COCCc1ccc(OCC(O)CNC(C)C)cc1.COCCc1ccc(OCC(O)CNC(C)C)cc1.O=C(O)CCC(=O)O (stereo not drawn),102%
CN1CCc2nc(C(=O)N[C@@H]3C[C@@H](C(=O)N(C)C)CC[C@@H]3NC(=O)C(=O)Nc3ccc(Cl)cn3)sc2C1.Cc1ccc(S(=O)(=O)O)cc1.O,106%
CC[C@H](C)[C@H]1O[C@]2(CC[C@@H]1C)C[C@@H]1C[C@@H](C/C=C(\C)[C@@H](O[C@H]3C[C@H](OC)[C@@H](O[C@H]4C[C@H](OC)[C@@H](O)[C@H](C)O4)[C@H](C)O3)[C@@H](C)/C=C/C=C3\CO[C@@H]4[C@H](O)C(C)=C[C@@H](C(=O)O1)[C@]34O)O2,96.5%
CS(=O)(=O)c1ccc(C(=O)Nc2ccc(Cl)c(-c3ccccn3)c2)c(Cl)c1,97.5%
CCCCCOc1ccc(-c2cc(-c3ccc(C(=O)N[C@H]4C[C@@H](O)[C@@H](O)NC(=O)[C@@H]5[C@@H](O)[C@@H](C)CN5C(=O)[C@H]([C@H](O)CC(N)=O)NC(=O)[C@H]([C@H](O)[C@@H](O)c5ccc(O)c(OS(=O)(=O)[O-])c5)NC(=O)[C@@H]5C[C@@H](O)CN5C(=O)[C@H]([C@@H](C)O)NC4=O)cc3)no2)cc1.[Na+],103%
CCC[C@H](NC(=O)[C@@H]1[C@H]2CCC[C@H]2CN1C(=O)[C@@H](NC(=O)[C@@H](NC(=O)c1cnccn1)C1CCCCC1)C(C)(C)C)C(=O)C(=O)NC1CC1,101%

# Set 3 — SMILES: CC(C)(C)c1cc(C=C(C#N)C#N)cc(Br)c1O; effect on: enzyme activity; mode: inhibitor; tested at: 0.5 µM
target,technique,baseline,remaining activity
"BMX (Homo sapiens, UniProt P51813)",,,113%
"TAOK2 (Homo sapiens, UniProt Q9UL54)",,control,96.5%
"DYRK1B (Homo sapiens, UniProt Q9Y463)",radiometric,,103%
"TGFBR1 (Homo sapiens, UniProt P36897)",,,103%
"RPS6KA2 (Homo sapiens, UniProt Q15349)",,control,98.9%
"NEK3 (Homo sapiens, UniProt P51956)",,,96.6%

# Mixed results
# Tspo: Translocator protein (Tspo, Rattus norvegicus, UniProt P16257)
# Sequence of UniProt P16257 (whole entry, looked up): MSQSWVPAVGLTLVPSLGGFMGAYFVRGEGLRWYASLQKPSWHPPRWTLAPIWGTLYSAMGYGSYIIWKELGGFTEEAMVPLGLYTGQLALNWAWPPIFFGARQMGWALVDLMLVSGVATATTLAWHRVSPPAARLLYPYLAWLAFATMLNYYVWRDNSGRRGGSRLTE
Compound,target,effect on,technique,tested at,endpoint,value
CCC(=O)N[C@@H]1CC[C@H](C(=O)N(C)c2ccc(-c3nc4ccccc4o3)cc2)C1,"pknB (Mycobacterium tuberculosis, UniProt P9WI81)",cell-free assay,competition with immobilised ligand,1 µM,remaining binding,78%
CNC(=O)c1cc(C(=O)NC2CC2)cn(Cc2ccccc2)c1=O,Tspo,radioligand binding,radioligand displacement,10 µM,inhibition,7.71%
Cc1c(N2CCNCC2)nc2ccc(Br)cc2c1C(=O)NC[C@H](CCC(=O)O)c1ccccc1Cl,Tspo,radioligand binding,radioligand displacement,10 µM,inhibition,20%
COc1cc(-c2cn(C3CCc4ccccc4N(CC(F)(F)F)C3=O)nn2)ccc1-n1ccc(C)n1 (stereo not drawn),"CDPK1 (Plasmodium falciparum, UniProt P62344)",cell-free assay,competition with immobilised ligand,1 µM,remaining binding,99%
